Results of several laboratories.
A part holds a random share of what one study measured. Positions count from the first letter of the parent shown.
Chain of UniProt Q12851 (whole entry, looked up): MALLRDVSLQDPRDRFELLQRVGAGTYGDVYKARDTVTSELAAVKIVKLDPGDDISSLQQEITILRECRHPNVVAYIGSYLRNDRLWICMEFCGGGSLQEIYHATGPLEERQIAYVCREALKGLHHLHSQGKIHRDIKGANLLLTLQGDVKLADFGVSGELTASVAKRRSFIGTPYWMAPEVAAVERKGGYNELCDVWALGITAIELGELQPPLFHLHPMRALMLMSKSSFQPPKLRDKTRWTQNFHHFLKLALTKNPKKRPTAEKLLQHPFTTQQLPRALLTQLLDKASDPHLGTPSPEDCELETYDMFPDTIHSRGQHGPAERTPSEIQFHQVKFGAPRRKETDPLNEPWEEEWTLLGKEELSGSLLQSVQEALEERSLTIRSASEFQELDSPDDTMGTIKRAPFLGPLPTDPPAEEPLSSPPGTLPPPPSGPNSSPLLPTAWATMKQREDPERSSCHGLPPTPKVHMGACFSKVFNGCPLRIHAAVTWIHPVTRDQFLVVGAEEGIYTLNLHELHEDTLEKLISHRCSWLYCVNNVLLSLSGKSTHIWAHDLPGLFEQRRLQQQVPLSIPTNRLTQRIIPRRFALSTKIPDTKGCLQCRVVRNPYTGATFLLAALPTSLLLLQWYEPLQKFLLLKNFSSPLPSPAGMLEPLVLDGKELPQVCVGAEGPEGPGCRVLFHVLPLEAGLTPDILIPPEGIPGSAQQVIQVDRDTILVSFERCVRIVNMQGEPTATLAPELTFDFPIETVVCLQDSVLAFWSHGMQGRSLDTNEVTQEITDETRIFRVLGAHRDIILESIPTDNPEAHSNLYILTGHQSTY

Sample 1
Target: CEP164, C-terminal peptide (human)
Method: DHFR complementation, deep sequencing
Matrix: yeast
Notes: single substitutions, model-inferred values
Reference: wild type
Reading: higher = weaker binding
Starting sequence: PDZK1, PDZ domain 2 (human); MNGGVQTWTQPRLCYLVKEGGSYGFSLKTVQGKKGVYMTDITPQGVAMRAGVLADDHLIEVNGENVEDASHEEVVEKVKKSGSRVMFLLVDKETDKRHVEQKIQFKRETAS; partner HNRVKVYRF
Change | binding free energy change
V75N | 2.62 kcal/mol
T39G | 0.589 kcal/mol
E100D | 0.0152 kcal/mol
K79Q | 0.238 kcal/mol
S22G | 0.124 kcal/mol
A50G | 0.224 kcal/mol
Q44C | 0.0855 kcal/mol
G45V | 0.824 kcal/mol

Sample 2
Target: RING finger protein unkempt homolog, zinc fingers 1-6, GST-SBP tag (UNK, Homo sapiens, UniProt Q9C0B0, residues 30-357)
Method: RNA Bind-n-Seq
Form: RNA
Matrix: in vitro
Concentration: not given
Notes: RNA with constant flanks, human-mouse chimeric sites, ends assumed
Reference: input RNA pool
Reading: higher = stronger binding
Constant ends, left off below: GGGAGUUCUACAGUCCGACGAUC … CAACAGAGGAUUGAGCAUCA
Target sequence (chain): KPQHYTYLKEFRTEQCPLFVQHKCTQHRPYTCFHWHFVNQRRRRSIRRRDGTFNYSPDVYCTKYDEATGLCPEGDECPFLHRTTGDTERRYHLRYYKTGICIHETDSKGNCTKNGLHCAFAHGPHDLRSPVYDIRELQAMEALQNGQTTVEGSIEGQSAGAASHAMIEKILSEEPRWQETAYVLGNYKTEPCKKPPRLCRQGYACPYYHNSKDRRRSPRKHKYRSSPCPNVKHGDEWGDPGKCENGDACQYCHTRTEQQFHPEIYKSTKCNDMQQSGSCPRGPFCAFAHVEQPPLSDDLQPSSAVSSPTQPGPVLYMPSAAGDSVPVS
Oligonucleotide | bound/input enrichment
UAAGUUAUUUUGUACAGCUUUGUAAAUUCUUAACAUUUUUAUAUUGCCAUGUUUAUUUUGUUUGGGUAAUUUGGUUCAUACAUGGCCAAACCAAAUAAAUGAACAUCUUUUUCAGUAAUU | 1.09 ratio
GUGUCCUUUCAACUUAAAUCACUGAGGAGGCAUCUCUACUGUUCUGUGAGCAUCAGGACUGUAGCGCUGUGUCACCACAUGAGAGUUCAGAAGCAGCCUUUCUGUGGAGGGUGGGAAUGA | 0.163 ratio
CUCAGAGAUGUGGCAUAUCAGUAUGUGAAAAAGGGGGCUCGAAUUUAUGUGGAAGGGAAAGUGGACUAUGGCGAGUACAUGGAUAAAAACAAUGUGAGGCGGCAAGCAACAACAAUCAUA | 0.353 ratio
AAUUUCCUGUCAUACUUUUUAGACAUUCACAUCAGACGCCUUACUACCCUGGCCACAUUCUAGGUUUGUGUUAUUUCUCAGCUAUGGAUAUGAUCAAAUGAGAACACUGGCAGCCAGAUG | 0.728 ratio
UCUUUAAAAAAAAAAUUACCUUUUCUGACAGUGCUUUCCCUCCCAUAGGUCCAGGUUCAAGCUCAAAGAGCAAAGGCUUUGCACGGAUCUGAUGAUGCUGAUGAAGAAAGAUUUCUGAGA | 0.506 ratio
CGCUUGGAUGAGGCUGGUGUCACAGAUGAAGUGCUGGAUUCUGCCAUGCAAGCCUUCCUUCUGGAGGUCAUUGUUAAACAUGGGGAGCCGGCACCUUAUUUAUGUAACAAAGAUCCGUUU | 0.0958 ratio
UUACCCGAGAACGAGGAUGAGCUGGAGAGCACCAACAGGCGCUACACCAAGAGAGACUGCAGCACUUUCCUCAGAACUAGUGAGACGGGCAUUGUGGACCAGGUCAUGGUCACUCUCAAC | 0.144 ratio
AUCAAAUACUUUGGGGAUAUUAUUAGCGUGGGACAGAGACUGUUGCAAGGGGCCCGGAUCUUAGGGAUUCCAGUUAUCAUAACGGAACAAUACCCCAAAGGACUUGGCAGCACCGUUCAA | 0.302 ratio

Sample 3
Target: Sal-like protein 4, full length isoform A (SALL4, Homo sapiens, UniProt Q9UJQ4, residues 1-1053)
Chain of UniProt Q9UJQ4 (whole entry, looked up): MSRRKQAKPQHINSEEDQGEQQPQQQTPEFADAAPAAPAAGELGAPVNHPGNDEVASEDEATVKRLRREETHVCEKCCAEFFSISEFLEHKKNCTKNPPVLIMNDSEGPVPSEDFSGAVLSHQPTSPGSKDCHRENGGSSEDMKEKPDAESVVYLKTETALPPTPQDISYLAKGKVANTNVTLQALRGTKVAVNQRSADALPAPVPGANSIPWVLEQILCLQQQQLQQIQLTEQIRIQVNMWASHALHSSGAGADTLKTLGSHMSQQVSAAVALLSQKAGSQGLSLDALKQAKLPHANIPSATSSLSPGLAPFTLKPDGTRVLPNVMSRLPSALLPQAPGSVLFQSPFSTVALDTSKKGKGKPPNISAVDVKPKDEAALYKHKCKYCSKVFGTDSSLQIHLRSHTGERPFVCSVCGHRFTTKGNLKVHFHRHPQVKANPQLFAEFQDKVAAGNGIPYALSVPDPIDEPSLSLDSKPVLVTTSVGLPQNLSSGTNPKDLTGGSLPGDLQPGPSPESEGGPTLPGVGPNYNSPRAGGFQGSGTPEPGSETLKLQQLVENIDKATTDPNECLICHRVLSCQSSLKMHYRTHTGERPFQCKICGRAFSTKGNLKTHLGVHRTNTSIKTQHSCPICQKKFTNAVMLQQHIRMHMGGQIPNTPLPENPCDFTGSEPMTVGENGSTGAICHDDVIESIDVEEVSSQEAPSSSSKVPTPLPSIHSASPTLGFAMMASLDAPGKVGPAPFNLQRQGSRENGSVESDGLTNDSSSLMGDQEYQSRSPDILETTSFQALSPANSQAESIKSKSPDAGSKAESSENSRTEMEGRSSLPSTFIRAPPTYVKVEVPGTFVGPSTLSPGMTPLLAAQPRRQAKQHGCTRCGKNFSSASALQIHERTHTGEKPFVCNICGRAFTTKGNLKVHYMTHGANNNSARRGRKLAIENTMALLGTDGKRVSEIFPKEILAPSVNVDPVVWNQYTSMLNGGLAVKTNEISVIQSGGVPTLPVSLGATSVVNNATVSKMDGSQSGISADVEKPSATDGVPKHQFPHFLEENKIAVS
Method: universal PBM
Form: double-stranded DNA, one strand shown
Matrix: in vitro
Concentration: 600 nM
Notes: 8-mer, flanks averaged, mean of replicates
Reading: higher = stronger binding
Oligonucleotide | E-score
CAACAACA | 0.22
GATCGCGC | -0.185
AACATAAC | 0.299
CGGAAATC | -0.124
ACACTGCA | -0.153
CCATGGCG | -0.0771
CACGGATC | -0.244
AAAAATTG | 0.383

Further values, each from its own experiment
Structure (SMILES) | target | assay | conditions | how to read | quantity | value
O=c1cc(-c2cccc3c2Sc2ccccc2S3)oc(N2CCOCC2)c1 | Mitogen-activated protein kinase kinase kinase kinase 2 (MAP4K2, Homo sapiens, UniProt Q12851) | enzyme activity, inhibitor | 0.5 µM | reference: control | remaining activity | 109%

A few entries again (sample 2):
Oligonucleotide | bound/input enrichment
UAAGUUAUUUUGUACAGCUUUGUAAAUUCUUAACAUUUUUAUAUUGCCAUGUUUAUUUUGUUUGGGUAAUUUGGUUCAUACAUGGCCAAACCAAAUAAAUGAACAUCUUUUUCAGUAAUU | 1.09 ratio
UCUUUAAAAAAAAAAUUACCUUUUCUGACAGUGCUUUCCCUCCCAUAGGUCCAGGUUCAAGCUCAAAGAGCAAAGGCUUUGCACGGAUCUGAUGAUGCUGAUGAAGAAAGAUUUCUGAGA | 0.506 ratio
GUGUCCUUUCAACUUAAAUCACUGAGGAGGCAUCUCUACUGUUCUGUGAGCAUCAGGACUGUAGCGCUGUGUCACCACAUGAGAGUUCAGAAGCAGCCUUUCUGUGGAGGGUGGGAAUGA | 0.163 ratio
